Results from different studies.
Numbered parts are unrelated; each lists some results of a single study.

Set 1
Target: Histone acetyltransferase KAT6A, winged helix 2, GST fusion (KAT6A, Homo sapiens, UniProt Q92794, residues 85-181)
Method: protein binding microarray
Molecule type: double-stranded DNA, one strand shown
Sample: in vitro
Tested at: not given
Setting: 8-mer, flanks averaged, mean of 2 arrays, mostly near background
Baseline: not given
Direction: higher = stronger binding
Target sequence (chain): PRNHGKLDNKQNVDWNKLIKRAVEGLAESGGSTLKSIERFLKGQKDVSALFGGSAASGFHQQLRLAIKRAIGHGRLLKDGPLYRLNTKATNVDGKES
| Oligonucleotide | E-score |
| --- | --- |
| CCTACACA | -0.134 |
| CCCGACAA | 0.254 |
| AGGGTGGA | 0.0267 |
| ATTGTTGC | 0.0206 |
| CAGGTGAC | -0.126 |
| CGATGCCA | 0.0426 |
| ACTCGAAT | -0.0281 |
| ATAGTCAT | -0.0875 |
| CGGTAGAG | -0.159 |
| ATCTCACA | -0.0377 |
| AAGAGGTC | 0.0398 |
| AGAACAAA | 0.139 |

Set 2
Target: RNA binding protein fox-1 homolog 2, RRM domain, GST-SBP tag (RBFOX2, Homo sapiens, UniProt O43251-10, residues 100-194)
Method: RNA Bind-n-Seq
Molecule type: RNA
Sample: in vitro
Tested at: 365 nM
Setting: natural RNA segment, single round, ends assumed
Baseline: no-protein control
Direction: higher = stronger binding
Constant ends, left off below: GGGAGUUCUACAGUCCGACGAUC … UGGAAUUCUCGGGUGCCAA
Residues (chain): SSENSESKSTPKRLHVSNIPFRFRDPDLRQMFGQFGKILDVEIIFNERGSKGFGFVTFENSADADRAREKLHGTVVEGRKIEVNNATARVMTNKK
| Oligonucleotide | RBNS enrichment (R) |
| --- | --- |
| CUCCAGCCCUGGUCUUGUCUUUUCAUCCCUCUUCCCCACGACAGAAGAAGUUGUGGCCCUGGCCAUGUCAUCGUGUUCCUGUGUCCCCUGCAUGUACCCCACCCUCCACC | 5.24 |
| GGCUUCGGGUGGUGCUAUAAUGUGGCACUGGAUCUUGAGUAAUAAAUUUGCUGUGGUUUGUACACGGUGUUGUCUGUAGCCUGCAAAGGAGAGGCUAGGUUACUGGGUAC | 0.736 |
| UGAAGCCUGCUAAAUGAAGAGACUUAAGAAAGCUUAAGGUACGCUUGCUUGUCUUUAAAUCUUCAAUAUGAAGGACUAUUAAUUCCAAGAUUAAAAGUUCAUAUAUAGGC | 0.748 |
| ACAAACCACCUCUACAUAUUAUGGAAAGAAAAUAUUUUUGUCGAUUCUUAUUCUUUUAUAAUUAUGCGUGGAAGAAGUAGACACAUUAAACGAUUCCAGUUGGAAACAUG | 0.482 |
| GCAGACCAGAGCCUCACACCUCUGGGUUGGGUGUGGAGGAAGAGGGGUACUGAGUUCCCUGGUCCUUUGGCUGUGUGUGCAGCGUGCAGAUUUCGGGACACCGAAACUUU | 0.344 |
| GUGCUGUCUAAUAACGUGGUCAUUGGAAUCUAAGGAAACUAGGGUCUGUGGUUAACACCCUGGGAUAAUUGUGAUGGGCAGAUGCGCAGUAAUGGCCUGUGUUGGUAACA | 0.389 |
| AUUGUUUUCCUGACAGCAAAAGACUAAUGUGACAAAAUGAAGUCAUUGUAAAGAAGCGAUGCAACUUGUCAAAUAUUUAAUAAAGAAUUAUGGAAGCUGGAACAUUUUCU | 0.565 |
| CACGAAGUCCCAAUCUACCCUUCCCUCAACCUCUUUCUCAAGGAGGAAACUCCCCACCUCACCCUGACAACCCUUGAUGUUUCCCAAAGUCUUUAGACAGCUGUGUGCAU | 0.906 |
| UUAAGGCUUUGGAAAGGAGCAAAUAAUAAUGGGAGAAUUAACUCCAAAACUUUGACCUGAAUCAUGUGGAUUUGUCCCAAGAUUAUGCUAGAUGCACCAAGCAUGGCCCA | 2.16 |
| AGAACUGUGGCUUGUAACUCAAUGAUGCUAUAACUCCAGCACUGGAUCUUAAGUAUUCUGGAAUAUACCAGAUUGGUAGAACUACCAGACUUGGGUAUUUCUCAGUUAAC | 0.891 |
| AAAAACAAAAACAAAAAACUUAAACUCCACUUUGUACCUUAGAUUUUAAAACUGGGUAGAAAUGUAAUAUACAUUGGACCACUUUUUUAAGCCUUAAUGAACAGUGUAUA | 0.485 |

Set 3
Target: Sal-like protein 4, full length isoform A (SALL4, Homo sapiens, UniProt Q9UJQ4, residues 1-1053)
UniProt Q9UJQ4, sequence (whole entry, looked up): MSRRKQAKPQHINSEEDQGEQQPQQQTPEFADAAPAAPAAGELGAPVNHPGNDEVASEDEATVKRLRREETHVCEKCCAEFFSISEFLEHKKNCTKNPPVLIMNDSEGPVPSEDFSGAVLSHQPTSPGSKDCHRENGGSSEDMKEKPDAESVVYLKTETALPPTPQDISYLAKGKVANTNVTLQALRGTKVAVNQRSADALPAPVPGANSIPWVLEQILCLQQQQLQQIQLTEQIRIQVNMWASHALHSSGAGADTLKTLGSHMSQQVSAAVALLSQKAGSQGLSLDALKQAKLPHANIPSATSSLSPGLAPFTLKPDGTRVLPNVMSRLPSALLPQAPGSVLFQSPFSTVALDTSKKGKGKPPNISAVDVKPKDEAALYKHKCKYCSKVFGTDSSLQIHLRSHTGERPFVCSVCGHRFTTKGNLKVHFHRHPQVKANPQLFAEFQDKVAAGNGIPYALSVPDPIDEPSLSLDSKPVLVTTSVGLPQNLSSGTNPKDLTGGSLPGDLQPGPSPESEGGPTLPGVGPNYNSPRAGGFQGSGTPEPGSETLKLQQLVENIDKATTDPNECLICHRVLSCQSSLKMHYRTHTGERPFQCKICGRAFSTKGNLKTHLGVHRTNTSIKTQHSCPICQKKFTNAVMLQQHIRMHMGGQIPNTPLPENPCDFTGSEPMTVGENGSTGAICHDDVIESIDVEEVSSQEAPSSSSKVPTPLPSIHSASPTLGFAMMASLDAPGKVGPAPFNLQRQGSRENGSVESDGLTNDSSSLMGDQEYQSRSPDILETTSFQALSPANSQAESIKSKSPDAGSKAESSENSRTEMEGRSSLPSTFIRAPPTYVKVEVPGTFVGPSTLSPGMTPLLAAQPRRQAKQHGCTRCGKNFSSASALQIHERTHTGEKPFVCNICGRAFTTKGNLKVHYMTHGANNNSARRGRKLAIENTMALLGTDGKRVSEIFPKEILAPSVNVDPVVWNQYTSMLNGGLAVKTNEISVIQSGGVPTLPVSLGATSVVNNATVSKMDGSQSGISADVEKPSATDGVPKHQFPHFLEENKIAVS
Method: universal PBM
Molecule type: double-stranded DNA, one strand shown
Sample: in vitro
Tested at: 600 nM
Setting: 8-mer, flanks averaged, mean of replicates
Direction: higher = stronger binding
| Oligonucleotide | E-score |
| --- | --- |
| AACCCGTC | -0.17 |
| GTATTGAC | 0.0176 |
| CTCTCATC | -0.101 |
| CTAGCAAA | 0.164 |
| AAGACTAC | 0.0907 |
| GTGGCAAA | -0.0479 |
| AACAAGAA | 0.286 |
| TGCGTTAA | 0.108 |
| CATGTAGG | 0.0755 |
| AGTGAACG | 0.036 |
| ATGAAAGA | 0.174 |
| ACGCGTGA | -0.0154 |

Mixed results
| Molecule | target | test | system | setting | scale | endpoint | result |
| --- | --- | --- | --- | --- | --- | --- | --- |
| PhoQ, residues 284 288 289 292 302 303 SNGLAW | PhoP, residues 12 14 15 18 19 GQALL (Escherichia coli, UniProt P23836) | Sort-seq, measured: YFP reporter | E. coli | PhoQ-PhoP variant library, with: 10 µM Mg2+ | baseline: high Mg2+ state, higher = stronger signaling | fold induction | 9.04 |

Repeated from above (set 3):
| Oligonucleotide | E-score |
| --- | --- |
| CATGTAGG | 0.0755 |
| AGTGAACG | 0.036 |
